Experimental data from different studies.
Values joined by “and” are separate records of one study, mostly repeats; a detail may differ. ± gives the spread as reported.
MAD2L2 R124A: MAD2L2 R124A (Homo sapiens, UniProt Q9UI95)
HCRTR2 del254-292/I293E/K294R/L160H/M161K/Q254E: Orexin receptor type 2 (HCRTR2, Homo sapiens, UniProt O43614, del254-292/I293E/K294R/L160H/M161K/Q254E)
Sequence of UniProt O43614 (whole entry, unmodified, looked up): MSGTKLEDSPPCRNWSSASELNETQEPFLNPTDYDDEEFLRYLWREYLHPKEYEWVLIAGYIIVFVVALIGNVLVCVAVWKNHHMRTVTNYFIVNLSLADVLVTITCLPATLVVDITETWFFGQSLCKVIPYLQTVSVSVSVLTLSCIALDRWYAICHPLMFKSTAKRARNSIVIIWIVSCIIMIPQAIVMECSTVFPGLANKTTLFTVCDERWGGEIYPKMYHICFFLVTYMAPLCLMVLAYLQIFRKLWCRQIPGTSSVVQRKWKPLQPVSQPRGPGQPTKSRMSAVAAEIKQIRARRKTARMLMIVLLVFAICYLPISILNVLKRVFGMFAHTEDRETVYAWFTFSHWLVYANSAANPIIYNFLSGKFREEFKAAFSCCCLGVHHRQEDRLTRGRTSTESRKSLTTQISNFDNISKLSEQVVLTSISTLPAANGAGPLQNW
TEM-1 β-lactamase: TEM-1 β-lactamase (UniProt P62593)
PPIA: PPIA (Homo sapiens, UniProt P62937)
B1: Mena EVH1 1-113 (Homo sapiens, UniProt Q8N8S7); chain MSEQSICQARAAVMVYDDANKKWVPAGGSTGFSRVHIYHHTGNNTFRVVGRKIQDHQVVINCAIPKGLKYNQATQTFHQWRDARQVYGLNFGSKEDANVFASAMMHALEVLNS
B2: FAM222A 1-150 (Homo sapiens, UniProt Q5U5X8); sequence looked up; chain MLACLQRTQNAPGQHLACPSKSLELRKCEAVASAMHSSRYPSPAELDAYAEKVANSPLSIKIFPTNIRVPQHKHLSRTVNGYDTSGQRYSPYPQHTAGYQGLLAIVKAAVSSSSTAAPAGPAKSVLKSAEGKRTKLSPAAVQVGIAPYPV
B3: FBPA (Plasmodium falciparum, UniProt Q7KQL9); chain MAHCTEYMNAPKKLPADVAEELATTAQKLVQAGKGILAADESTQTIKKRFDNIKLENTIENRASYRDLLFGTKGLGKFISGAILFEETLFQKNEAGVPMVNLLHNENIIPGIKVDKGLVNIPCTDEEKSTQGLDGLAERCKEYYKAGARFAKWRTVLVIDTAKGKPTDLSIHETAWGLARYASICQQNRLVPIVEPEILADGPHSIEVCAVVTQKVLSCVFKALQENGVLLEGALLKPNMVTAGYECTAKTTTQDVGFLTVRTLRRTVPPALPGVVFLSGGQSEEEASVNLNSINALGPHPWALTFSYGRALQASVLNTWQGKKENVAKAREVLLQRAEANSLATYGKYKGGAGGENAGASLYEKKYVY
Sequence of UniProt Q68RJ5 (whole entry, looked up): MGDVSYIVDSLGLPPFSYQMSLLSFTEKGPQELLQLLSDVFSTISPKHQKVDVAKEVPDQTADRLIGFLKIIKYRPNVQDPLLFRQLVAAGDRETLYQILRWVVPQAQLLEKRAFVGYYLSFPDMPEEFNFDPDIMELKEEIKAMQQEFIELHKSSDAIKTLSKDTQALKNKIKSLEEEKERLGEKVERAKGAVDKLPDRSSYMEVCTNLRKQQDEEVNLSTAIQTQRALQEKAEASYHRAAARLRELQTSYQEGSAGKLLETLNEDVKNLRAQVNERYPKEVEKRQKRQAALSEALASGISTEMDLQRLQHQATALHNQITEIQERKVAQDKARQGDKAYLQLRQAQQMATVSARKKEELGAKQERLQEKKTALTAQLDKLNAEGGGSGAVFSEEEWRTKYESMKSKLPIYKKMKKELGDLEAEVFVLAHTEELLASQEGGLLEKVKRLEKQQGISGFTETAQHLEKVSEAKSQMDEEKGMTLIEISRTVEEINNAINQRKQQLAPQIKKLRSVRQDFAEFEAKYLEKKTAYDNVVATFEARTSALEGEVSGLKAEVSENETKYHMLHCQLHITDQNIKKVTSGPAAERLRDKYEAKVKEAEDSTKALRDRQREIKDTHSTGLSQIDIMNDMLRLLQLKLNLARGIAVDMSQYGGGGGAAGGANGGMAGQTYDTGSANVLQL
Sequence of UniProt Q7Z434 (whole entry, unmodified, looked up): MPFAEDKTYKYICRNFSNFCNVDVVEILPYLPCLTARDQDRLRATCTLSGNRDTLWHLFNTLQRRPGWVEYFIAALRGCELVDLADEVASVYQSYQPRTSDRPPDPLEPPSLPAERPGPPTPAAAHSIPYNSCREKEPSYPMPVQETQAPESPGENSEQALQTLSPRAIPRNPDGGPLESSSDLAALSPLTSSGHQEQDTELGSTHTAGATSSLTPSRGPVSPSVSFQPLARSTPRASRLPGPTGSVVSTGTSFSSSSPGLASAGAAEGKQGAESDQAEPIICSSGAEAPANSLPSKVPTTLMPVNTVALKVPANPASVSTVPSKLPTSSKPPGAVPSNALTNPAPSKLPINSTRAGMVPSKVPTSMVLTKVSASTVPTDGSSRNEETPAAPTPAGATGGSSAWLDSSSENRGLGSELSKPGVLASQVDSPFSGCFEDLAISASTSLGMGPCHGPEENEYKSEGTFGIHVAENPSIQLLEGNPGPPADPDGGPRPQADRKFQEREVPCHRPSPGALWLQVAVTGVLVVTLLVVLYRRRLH
Sequence of UniProt P24255 (whole entry, looked up): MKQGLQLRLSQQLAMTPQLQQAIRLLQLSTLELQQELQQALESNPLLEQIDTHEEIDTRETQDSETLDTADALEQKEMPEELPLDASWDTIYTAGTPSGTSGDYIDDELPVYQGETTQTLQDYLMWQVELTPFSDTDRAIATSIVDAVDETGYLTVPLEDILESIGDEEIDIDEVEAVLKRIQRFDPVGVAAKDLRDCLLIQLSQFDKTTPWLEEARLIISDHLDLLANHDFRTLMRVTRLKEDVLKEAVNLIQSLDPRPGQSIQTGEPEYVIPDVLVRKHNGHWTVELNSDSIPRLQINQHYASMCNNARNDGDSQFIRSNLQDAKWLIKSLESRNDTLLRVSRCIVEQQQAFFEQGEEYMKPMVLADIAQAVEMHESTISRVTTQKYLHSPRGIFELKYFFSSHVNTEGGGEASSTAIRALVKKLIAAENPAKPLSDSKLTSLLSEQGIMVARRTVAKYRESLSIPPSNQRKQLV
Sequence of UniProt Q9NVR5 (whole entry, looked up): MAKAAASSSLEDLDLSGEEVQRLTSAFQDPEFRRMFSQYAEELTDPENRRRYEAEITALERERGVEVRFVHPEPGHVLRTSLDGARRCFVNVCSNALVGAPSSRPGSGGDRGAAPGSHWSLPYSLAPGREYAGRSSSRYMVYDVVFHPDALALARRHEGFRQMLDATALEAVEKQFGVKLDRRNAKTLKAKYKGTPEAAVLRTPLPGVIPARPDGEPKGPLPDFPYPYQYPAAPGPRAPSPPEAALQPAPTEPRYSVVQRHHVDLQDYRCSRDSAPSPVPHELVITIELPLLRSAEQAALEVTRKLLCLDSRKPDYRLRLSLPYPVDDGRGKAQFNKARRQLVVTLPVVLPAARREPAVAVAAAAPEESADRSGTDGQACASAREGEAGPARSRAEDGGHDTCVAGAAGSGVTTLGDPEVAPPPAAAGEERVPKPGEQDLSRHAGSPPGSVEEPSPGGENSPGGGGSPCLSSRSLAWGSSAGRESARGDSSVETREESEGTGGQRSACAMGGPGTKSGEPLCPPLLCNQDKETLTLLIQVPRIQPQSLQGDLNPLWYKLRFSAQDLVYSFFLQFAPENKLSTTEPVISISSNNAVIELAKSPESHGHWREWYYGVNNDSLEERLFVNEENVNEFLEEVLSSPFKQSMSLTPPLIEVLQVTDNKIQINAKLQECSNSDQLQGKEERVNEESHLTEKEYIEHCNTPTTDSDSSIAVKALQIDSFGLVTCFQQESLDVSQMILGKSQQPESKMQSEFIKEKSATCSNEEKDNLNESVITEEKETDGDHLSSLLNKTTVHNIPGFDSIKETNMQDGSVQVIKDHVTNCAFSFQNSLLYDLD
Sequence of UniProt P09616 (whole entry, looked up): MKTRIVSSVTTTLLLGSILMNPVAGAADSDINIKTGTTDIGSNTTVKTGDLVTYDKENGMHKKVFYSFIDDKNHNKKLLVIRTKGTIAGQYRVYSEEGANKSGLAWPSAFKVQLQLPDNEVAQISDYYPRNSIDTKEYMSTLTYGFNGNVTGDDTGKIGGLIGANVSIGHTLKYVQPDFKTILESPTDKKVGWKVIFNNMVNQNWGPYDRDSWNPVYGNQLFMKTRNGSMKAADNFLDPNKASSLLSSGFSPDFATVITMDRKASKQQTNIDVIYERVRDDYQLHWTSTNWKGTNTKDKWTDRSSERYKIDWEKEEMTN
Sequence of UniProt B8LIX8 (whole entry, looked up): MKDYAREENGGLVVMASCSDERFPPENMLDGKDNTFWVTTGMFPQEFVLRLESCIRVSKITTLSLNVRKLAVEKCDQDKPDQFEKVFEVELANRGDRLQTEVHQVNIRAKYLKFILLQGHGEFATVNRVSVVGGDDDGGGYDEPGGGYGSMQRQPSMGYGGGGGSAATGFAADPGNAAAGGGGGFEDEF
Sequence of UniProt P05164 (whole entry, unmodified, looked up): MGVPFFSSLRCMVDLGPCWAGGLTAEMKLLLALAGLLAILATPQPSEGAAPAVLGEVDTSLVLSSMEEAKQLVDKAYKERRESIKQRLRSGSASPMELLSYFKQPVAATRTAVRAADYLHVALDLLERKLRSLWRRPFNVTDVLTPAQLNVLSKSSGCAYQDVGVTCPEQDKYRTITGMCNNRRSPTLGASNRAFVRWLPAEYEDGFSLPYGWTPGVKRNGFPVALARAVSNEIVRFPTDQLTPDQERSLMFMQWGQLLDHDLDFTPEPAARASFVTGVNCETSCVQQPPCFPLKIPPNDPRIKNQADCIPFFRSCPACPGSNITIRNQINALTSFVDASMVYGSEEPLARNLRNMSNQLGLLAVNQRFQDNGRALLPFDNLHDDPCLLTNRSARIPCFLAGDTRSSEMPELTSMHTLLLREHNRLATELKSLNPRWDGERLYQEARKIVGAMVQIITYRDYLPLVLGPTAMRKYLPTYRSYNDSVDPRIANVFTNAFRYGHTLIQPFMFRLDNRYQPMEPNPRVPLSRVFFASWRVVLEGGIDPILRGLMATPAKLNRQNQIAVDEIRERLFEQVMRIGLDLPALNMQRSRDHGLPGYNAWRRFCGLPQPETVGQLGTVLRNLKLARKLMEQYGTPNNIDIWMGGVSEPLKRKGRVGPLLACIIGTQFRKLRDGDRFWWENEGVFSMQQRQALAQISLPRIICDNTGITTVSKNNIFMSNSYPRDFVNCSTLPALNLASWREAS
Sequence of UniProt A8HN58 (whole entry, looked up): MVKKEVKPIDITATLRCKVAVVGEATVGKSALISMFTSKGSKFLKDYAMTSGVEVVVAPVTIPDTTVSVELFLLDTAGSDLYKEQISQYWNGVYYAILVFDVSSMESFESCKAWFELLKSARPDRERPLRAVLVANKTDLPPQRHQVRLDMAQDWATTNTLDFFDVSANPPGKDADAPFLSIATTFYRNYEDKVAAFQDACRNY

Molecule	tested on	assay	test system	setting	scale	endpoint	value
CDYYAYATFGFTSAAADAKVC (BLIP cyclic peptide (Streptomyces clavuligerus); C-terminal amide, cyclic, disulfide)	KPC-2 (Klebsiella pneumoniae, UniProt Q9F663)	BLI	peptide	–	–	koff	0.00096 s⁻¹
B1 (Mena EVH1 1-113)	ActA (Listeria monocytogenes)	intrinsic tryptophan fluorescence	–	–	–	Kd	13500 nM
SNILIPELKAPKS (ipaB RBM, 60-72 (Shigella))	MAD2L2 R124A	competition with FAM-REV3 peptide, competitor, fluorescence polarisation	peptide	–	–	IC50	147 ± 13 µM
DLDSDDEY (TELO2 488-494 (Homo sapiens); pS491)	DNAAF2 73-197 (Homo sapiens, UniProt Q9NVR5)	ITC	peptide	–	–	Kd	78700 nM
neuropeptide FF	HCRTR2 del254-292/I293E/K294R/L160H/M161K/Q254E	sensor fluorescence, fluorescence imaging	HEK293T	concentration not given, unit not given	baseline: baseline	ΔF/F0	2.2 and -0.267 and -4.31 and 0.971 and 0.728 and 0.286 and 1.28 and -1.48
IFT27 (Chlamydomonas reinhardtii, UniProt A8HN58)	IFT81 (Chlamydomonas reinhardtii, UniProt Q68RJ5)	cross-linking MS	–	hits only	–	interaction screen	cross-linked
insulin human	–	measured: GOT2 mRNA	EcoHIV-infected mouse, brain	i.p., dose not given	baseline: PBS	fold change	1.05
IFT25 (Chlamydomonas reinhardtii, UniProt B8LIX8)	IFT74 (Chlamydomonas reinhardtii, UniProt Q6RCE1)	cross-linking MS	–	hits only	–	interaction screen	cross-linked
brain natriuretic peptide	hly (Staphylococcus aureus, UniProt P09616)	nanopore sensing	–	asymmetric electrolyte	–	dynamic range	7 orders of magnitude
EDKKIVIMPCKCAPSRQLVQVWLQAKE (REV3L RBM2, 1988-2014 (Homo sapiens))	MAD2L2 R124A	competition with FAM-REV3 peptide, competitor, fluorescence polarisation	peptide	–	–	IC50	1.5 ± 0.03 µM
rpoN (Escherichia coli, UniProt P24255)	rpoB (Escherichia coli, UniProt P0A8V2)	cryo-EM	–	–	–	binding	binds
CAGGIFHSLALKC (BLIP-II cyclic peptide (Streptomyces); C-terminal amide, cyclic, disulfide)	TEM-1 β-lactamase	BLI	peptide	–	–	Kd	680 ± 10 nM
PLMSPPSREEIMATLLDHD (REV3L RBM1, 1880-1898 (Homo sapiens))	MAD2L2 R124A	competition with FAM-REV3 peptide, competitor, fluorescence polarisation	peptide	–	–	IC50	9.1 ± 0.5 µM
NS5A mature (hepatitis C virus, UniProt Q9WMX2)	PPIA	luciferase, two-hybrid	CHO	–	baseline: pACT/pBIND RLU, higher = stronger interaction	signal over pACT/pBIND	4.4 fold
SKLIGDPNLEFVAMPALAPPAS (RAN RBM, 166-187)	MAD2L2 R124A	competition with FAM-REV3 peptide, competitor, fluorescence polarisation	peptide	–	–	IC50	83 ± 6 µM
orexin-B	HCRTR2 del254-292/I293E/K294R/L160H/M161K/Q254E	receptor activation kinetics	human cells	–	–	activation time constant tau	509 ms and 403 ms and 255 ms and 502 ms

Molecule	tested on	assay	test system	setting	scale	endpoint	value
CAIAGGYFHGLALKGC (BLIP-II cyclic peptide (Streptomyces); C-terminal amide, cyclic, disulfide)	TEM-1 β-lactamase	BLI	peptide	–	–	koff	0.00048 s⁻¹
CXCL6 (Homo sapiens)	ORF74 whole (human herpesvirus 8, UniProt Q98146)	competition with anti-ORF74 antibody binding, flow cytometry	HEK293A.ORF74	–	–	pIC50	8.75
aspterric acid	–	–	Arabidopsis thaliana Col-0 seeds	3.125 µg/mL, seed germination	–	hypocotyl length	1.87 cm
NLFDDNIDIFADLT (WASHC2A 1261-1274 (Homo sapiens))	SNX27 K495D (Homo sapiens)	ITC	peptide	–	–	Kd	58300 ± 1410 nM
melanin-concentrating hormone	HCRTR2 del254-292/I293E/K294R/L160H/M161K/Q254E	sensor fluorescence, fluorescence imaging	HEK293T	concentration not given, unit not given	baseline: baseline	ΔF/F0	-3.42 and 0.621 and 9.08 and -4.35 and -1.35 and -1.79 and -1.15 and -8.52
GRGRGRGRGRGRGRGRGRGRGRGRGRGRGRGRGRGRGRGRGRGRGRGRGRGRGRGRGRGR (poly-GR 30 repeats)	G3BP1 (Homo sapiens, UniProt Q13283)	BLI	peptide	with: RNA	–	Kd	0.01 ± 0.008 nM
spn N-terminal deletion (Staphylococcus aureus)	MPO mature, native (Homo sapiens, UniProt P05164)	SPR	–	–	–	kon	208000 M⁻¹ s⁻¹
B2 (FAM222A 1-150)	MAVS 1-513 (Homo sapiens, UniProt Q7Z434)	pull-down	–	–	–	binding	binds
NS5A fragment (hepatitis C virus)	PPIA	AlphaScreen	–	–	baseline: GST-CypA alone RLU, higher = stronger interaction	signal over GST-CypA	2.9 fold
Neuromedin B	HCRTR2 del254-292/I293E/K294R/L160H/M161K/Q254E	sensor fluorescence, fluorescence imaging	HEK293T	concentration not given, unit not given	baseline: baseline	ΔF/F0	0.00155 and 1.17 and 0.941 and 0.158 and 0.219 and 2.81 and 0.365 and 2.98
CDGYSSTGFYRGSAHLWFC (MBP/BLIP cyclic peptide (Streptomyces clavuligerus); cyclic)	TEM-1 β-lactamase	SPR	peptide	–	–	Kd	9400 ± 530 nM
Nociceptin	HCRTR2 del254-292/I293E/K294R/L160H/M161K/Q254E	sensor fluorescence, fluorescence imaging	HEK293T	concentration not given, unit not given	baseline: baseline	ΔF/F0	-1.46 and -2.2 and 0.759 and 0.342 and 0.281 and 0.434 and 4.31 and 0.509
CWSEYYPAYC (BLIP cyclic peptide (Streptomyces clavuligerus); C-terminal amide, cyclic, disulfide)	TEM-1 β-lactamase	BLI	peptide	–	–	Kd	1200 ± 27 nM
B3 (FBPA)	MTRAP C-terminal cytoplasmic tail (Plasmodium falciparum)	SPR	–	–	–	Kd	91 nM
Neurotensin	HCRTR2 del254-292/I293E/K294R/L160H/M161K/Q254E	sensor fluorescence, fluorescence imaging	HEK293T	concentration not given, unit not given	baseline: baseline	ΔF/F0	2.47 and 1.56 and 2.49 and 5.8 and 1.12 and 1.7 and 6.93 and -0.967
CHLWFTDGVLC (BLIP cyclic peptide (Streptomyces clavuligerus); C-terminal amide, cyclic, disulfide)	TEM-1 β-lactamase	BLI	peptide	–	–	Kd	450 ± 18 nM

A few entries again:
Molecule	tested on	assay	test system	setting	scale	endpoint	value
CWSEYYPAYC (BLIP cyclic peptide (Streptomyces clavuligerus); C-terminal amide, cyclic, disulfide)	TEM-1 β-lactamase	BLI	peptide	–	–	Kd	1200 ± 27 nM
brain natriuretic peptide	hly (Staphylococcus aureus, UniProt P09616)	nanopore sensing	–	asymmetric electrolyte	–	dynamic range	7 orders of magnitude
melanin-concentrating hormone	HCRTR2 del254-292/I293E/K294R/L160H/M161K/Q254E	sensor fluorescence, fluorescence imaging	HEK293T	concentration not given, unit not given	baseline: baseline	ΔF/F0	-3.42 and 0.621 and 9.08 and -4.35 and -1.35 and -1.79 and -1.15 and -8.52
NS5A mature (hepatitis C virus, UniProt Q9WMX2)	PPIA	luciferase, two-hybrid	CHO	–	baseline: pACT/pBIND RLU, higher = stronger interaction	signal over pACT/pBIND	4.4 fold
